Published values of several laboratories.
Compare with care: the assays were run in different laboratories. ± marks the error that the study gave.

O=C(N1CCCCC1)C12CC(c3ccccc3)(C1)C2(Cl)Cl  half-life (metabolic stability; human liver microsomes; 2 µM, pH 7.4): 0.433 h
CN(C(=O)OCc1cc(C(=O)O)ccc1OP(=O)(O)O)C(=O)c1ccc(N2C(=S)N(c3ccc(C#N)c(C(F)(F)F)c3)C(=O)C2(C)C)cc1F  half-life (simulated gastric fluid; 10 µM, 2 h incubation, pH 1.2): > 2 h
C/C(N)=N/C(=N\S(=O)(=O)c1ccc(C(F)(F)F)cc1)N1C[C@H](c2ccccc2)C(c2ccc(Cl)cc2)=N1  half-life (human liver cytosol): > 2 h
C=CC(=O)Nc1cccc(Cn2ncc3cnc(Nc4cnn(CCOC)c4)nc32)c1  half-life (Beagle dog whole blood; 5 µM): 1.76 h
O=c1c(-c2cnn(-c3ccccc3)c2)c(C(F)(F)F)oc2c(O)c(O)ccc12  half-life (rat plasma): 3.85 h
N=C(N)NCCC[C@@H]1NC(=O)[C@H](CO)NC(=O)[C@@H](NC(=O)[C@H](CO)NC(=O)[C@H](CO)NC(=O)[C@H](Cc2c[nH]c3ccccc23)NC(=O)CNC(=O)[C@H](CO)NC(=O)[C@@H](N)Cc2c[nH]c3ccccc23)CSSC[C@@H](C(=O)NCC(=O)O)NC(=O)[C@H](CO)NC1=O  half-life (patients, plasma; intravenous, 5 mg/kg, thrice weekly, geometric mean): 0.298 h
O=C(Nc1cccc(C(=O)N2CCC(c3nc(-c4ccccc4)n[nH]3)CC2)c1)c1ccccc1  half-life (CD-1 mouse liver microsomes; pH 7.4, with: NADPH): 0.29 h
CC(C)C[C@H](NC(=O)[C@H](Cc1ccc(O)cc1)NC(=O)[C@H](CC(N)=O)NC(=O)[C@H](CO)NC(=O)[C@H](CCCNC(=N)N)NC(=O)[C@H](Cc1ccc(O)cc1)NC(=O)CNC(=O)[C@H](CCCNC(=N)N)NC(=O)[C@H](Cc1c[nH]cn1)NC(=O)[C@H](CO)NC(=O)[C@H](Cc1c[nH]cn1)NC(=O)[C@H](Cc1c[nH]cn1)NC(=O)[C@H](CCCCN)NC(=O)[C@H](CCC(=O)O)NC(=O)[C@H](Cc1c[nH]cn1)NC(=O)[C@H](Cc1ccccc1)NC(=O)[C@H](CCCCN)NC(=O)[C@H](CCCNC(=N)N)NC(=O)[C@H](CCCCN)NC(=O)[C@H](Cc1ccc(O)cc1)NC(=O)CNC(=O)[C@H](Cc1c[nH]cn1)NC(=O)[C@H](Cc1c[nH]cn1)NC(=O)[C@H](CCCNC(=N)N)NC(=O)[C@H](CCCCN)NC(=O)[C@H](C)NC(=O)[C@H](Cc1c[nH]cn1)NC(=O)[C@H](CO)NC(=O)[C@@H](N)CC(=O)O)C(=O)N[C@@H](Cc1ccc(O)cc1)C(=O)N[C@@H](CC(=O)O)C(=O)N[C@@H](CC(N)=O)C(=O)O  half-life (human parotid secretion; 37 °C, mean, no protease inhibitors): 7.2 ± 5.5 h
Brc1ccncc1  half-life (pH 7.4): 76.6 h
O=Cc1cc(C(F)(F)F)cc(C(F)(F)F)c1  half-life (chemical stability, HPLC-MS; borate buffered saline; pH 10.2, no N-acetyl-lysine): 5.7 h
Cc1c(Cc2cc(F)cc(OC(C)(C)C(=O)O)c2)c2ccc(C(=O)N[C@@H](C)c3ccc(C(C)(C)C)cc3)cc2n1CC1CCC1  half-life (mouse liver microsomes; 1 µM, with: microsomes 1 mg/mL): > 1 h
O=Cc1cc(C(F)(F)F)ccc1B(O)O  half-life (chemical stability, HPLC-MS; borate buffered saline; pH 10.2, no N-acetyl-lysine): 447 h
CCOC(=O)[C@H](CCCNC(N)=O)NC(=O)[C@H](Cc1c[nH]c2ccccc12)NC(=O)[C@@H]1CCCCN1C(=O)[C@H](Cc1ccccc1)N(C)C(=O)CCl  half-life (MALDI MS; cell-free DMEM with FBS; 10 µM): > 72 h
O=C(NC1CCC(F)(F)CC1)C(c1cncnc1)N(C(=O)C(F)Cl)c1ccc(OC(F)(F)F)cc1 (centres unmarked)  half-life (human liver microsomes; concentration not given, pH 7.4): > 2.42 h
N#Cc1cncs1  half-life (pH 7.4): 350 h
Cc1c(Cc2cc(F)cc(OC(C)(C)C(=O)O)c2)c2ccc(C(=O)N[C@@H](C)c3cc(F)cc(C(C)(C)C)c3)cc2n1CC1CCC1  half-life (human liver microsomes; 1 µM, with: microsomes 1 mg/mL): 0.767 h
OB(O)c1sccc1/C=N/OCc1ccccc1  half-life (PBS; 80 µM, pH 7.4, with: fructose 1 equiv): 2.05 h
Cc1ccc(C(C)C)cc1.O=C(N=P(c1ccccc1)(c1ccccc1)c1ccccc1)c1[c-]cccc1.[Cl-].[Ru+2]  half-life (DMSO-d6): ~216 h
O=C=Nc1cc(C(F)(F)F)cc(C(F)(F)F)c1  half-life (reactivity with N-α-acetyl-lysine, HPLC-MS; pH 10.2): < 0.0167 h
CSCc1cn(-c2cccc(C(=O)N3CCC(c4nc(-c5ccccc5)n[nH]4)CC3)c2)nn1  half-life (human liver microsomes; pH 7.4, with: NADPH): 0.07 h
Cc1c(Cc2ccc(Cl)c(OC(C)C(=O)O)c2)c2ccc(C(=O)NC(C)c3ccc(C(C)(C)C)cc3)cc2n1CC1CC1 (centres unmarked)  half-life (human liver microsomes; 1 µM, with: microsomes 1 mg/mL): > 1 h
O=C1CCC(N2Cc3c(NC(=O)OCc4cc(C(=O)O)ccc4OP(=O)(O)O)cccc3C2=O)C(=O)N1 (centres unmarked)  half-life (simulated gastric fluid; 10 µM, 2 h incubation, pH 1.2): > 2 h
Cc1c(Cc2ccc(Cl)c(O[C@H](C)C(=O)O)c2)c2ccc(C(=O)N[C@@H](C)c3ccc(C(C)(C)C)cc3)cc2n1C  half-life (mouse liver microsomes; 1 µM, with: microsomes 1 mg/mL): > 1 h
O=Cc1cc(OCc2ccccc2)ccc1B(O)O  half-life (reactivity with N-α-acetyl-lysine, HPLC-MS; pH 10.2): 35.4 h
Cc1c(Cc2cccc(OC(C)(C)C(=O)O)c2)c2ccc(C(=O)N[C@@H](C)c3cccc(C(C)(C)C)c3)cc2n1CC1CCC1  half-life (human liver microsomes; 1 µM, with: microsomes 1 mg/mL): > 1 h
C=Cc1c(C)noc1C  half-life (pH 7.4): 14.5 h
Cc1c(Cc2ccc(Cl)c(O[C@@H](C)C(=O)O)c2)c2ccc(C(=O)N[C@@H](C)c3cc(F)cc(C(C)(C)C)c3)cc2n1C  half-life (human liver microsomes; 1 µM, with: microsomes 1 mg/mL): > 1 h
O=S(=O)(Cl)c1cc(C(F)(F)F)cc(C(F)(F)F)c1  half-life (chemical stability, HPLC-MS; BBS buffer with acetonitrile; pH 10.2): < 0.0167 h
Cc1c(Cc2cccc(OC(C)(C)C(=O)O)c2)c2ccc(C(=O)N[C@@H](C)c3ccc(C(C)(C)C)cc3)cc2n1CC1CCC1  half-life (mouse liver microsomes; 1 µM, with: microsomes 1 mg/mL): > 1 h
CCOC(=O)C12CC(N)(C1)C2  half-life (metabolic stability; human liver microsomes): 0.2 h
Cc1c(Cc2ccc(Cl)c(O[C@H](C)C(=O)O)c2)c2ccc(C(=O)N[C@@H](C)c3ccc(C(C)(C)C)cc3)cc2n1CC(C)C  half-life (mouse liver microsomes; 1 µM, with: microsomes 1 mg/mL): > 1 h
CCCC/C=C/C(=O)N[C@@H](Cc1cc(F)cc(F)c1)C(=O)N[C@H]1COC(=O)[C@@H]2CCCN2C(=O)[C@H](C)NC(=O)[C@@H]2C[C@@H](C)CCN2C(=O)[C@@H]2CCCN2C1=O  half-life (H-D exchange, 1H NMR, item: alanine amide hydrogen; CD3OD; 25 °C): 1.92 h

A few entries again:
O=C1CCC(N2Cc3c(NC(=O)OCc4cc(C(=O)O)ccc4OP(=O)(O)O)cccc3C2=O)C(=O)N1 (centres unmarked)  half-life (simulated gastric fluid; 10 µM, 2 h incubation, pH 1.2): > 2 h
Cc1c(Cc2ccc(Cl)c(O[C@H](C)C(=O)O)c2)c2ccc(C(=O)N[C@@H](C)c3ccc(C(C)(C)C)cc3)cc2n1C  half-life (mouse liver microsomes; 1 µM, with: microsomes 1 mg/mL): > 1 h
O=Cc1cc(OCc2ccccc2)ccc1B(O)O  half-life (reactivity with N-α-acetyl-lysine, HPLC-MS; pH 10.2): 35.4 h
Cc1c(Cc2cccc(OC(C)(C)C(=O)O)c2)c2ccc(C(=O)N[C@@H](C)c3cccc(C(C)(C)C)c3)cc2n1CC1CCC1  half-life (human liver microsomes; 1 µM, with: microsomes 1 mg/mL): > 1 h
C=Cc1c(C)noc1C  half-life (pH 7.4): 14.5 h
